Assay results collected from several papers.
Several values in a cell are separate wells, animals, samples, runs or records.
Target: Ephrin type-B receptor 4 (EPHB4, Homo sapiens, UniProt P54760)

The remaining binding of `C=CC(=O)N1CCc2ccc(-n3c(=O)ccc4cnc5ccc(-c6cnn(C)c6)cc5c43)cc21` is reported as 100% (KINOMEscan; 1 µM; reference: DMSO control).
With `CNC1C[S+]2CC[S+]3CC[S+](C1)[Ru-4]321([N]=C=S)[n]2c3ccc(OC)cc3c3c4c(c5cc(F)c[n+]1c5c32)C(=O)NC4=O` (stereo not shown) the remaining binding was 90% (KinomeScan; 0.1 µM; reference: untreated).
`Cc1cccc(O[C@H]2CCC[C@@H](C(C)CNCc3ccncc3)C2)c1` (relative stereo) has an inhibition of -3% (cell-free assay; 10 µM).
The remaining activity of `COc1cc(Nc2nc(C)cc(-c3cnn4nc(OC)ccc34)n2)cc(C(F)(F)F)c1` is reported as 94% (inhibitor; 1 µM; reference: control).
`O=c1c(-c2ccc(Cl)c(CN3CCOCC3)c2)coc2cc(O)ccc12` gave a remaining activity of 89% (enzyme activity, inhibitor; 1 µM).
For `C=CC(=O)Nc1cc(-c2nn(C3CCN(CCNC(=O)[C@H](C)CCC45CC6CC(CC(C6)C4)C5)CC3)c3ncnc(N)c23)ccc1Oc1ccccc1`, the inhibition was 16.4% (inhibitor, KiNativ profiling; biochemical; 2 µM).
`CC(C)=CC1OC(C)(C)C2C=C3C(=O)C(Cl)=CC(O)C3C3C(O)C4OC4C(=O)C132` (stereo not shown) gave a remaining binding of 77% (cell-free assay, competition with immobilised ligand; 10 µM).
With `Cc1cnc2nc1Nc1cccc(c1)COC/C=C/COCc1cc(ccc1OCCN1CCOCC1)N2` the remaining binding was 100% (binding; 0.1 µM).
For `Nc1ncc2c(n1)-c1c([nH]c3ccc(C4=CCOCC4)cc13)CCC2`, the remaining binding was 84% (binding, competition with immobilised ligand; 1 µM).
`O=C(Cc1ccc(OCc2ccccc2)cc1)NC1(C(=O)O)CCN(C(=O)c2ccc(-c3cccc(Cl)c3)cc2)CC1`: “activity vs control” 109% (enzyme activity, inhibitor; 10 µM).
Under “activity vs control”, `CNC(=O)C[C@H](Cc1ccc(C#N)cc1)NC(=O)c1cc(-c2ccc(CN[C@H](C)c3ccc(C)cc3)o2)ccc1Cl` is recorded as 90% (enzyme activity, inhibitor; 1 µM).
With `CCN1CCN(Cc2ccc(C(=O)Nc3ccc(C)c(NCc4cnc5[nH]ccc5c4OC)c3)cc2C(F)(F)F)CC1` the remaining binding was 23% (binding, competition with immobilised ligand; 1 µM).
With `CNC(=O)C1CCN(c2cc(C)c(F)cc2NC(=O)c2ccc(-c3cc(O)ccc3C)c(C)c2)CC1` the remaining binding was 0.85% (binding, competition with immobilised ligand; 1 µM).
`NC(=O)C[C@H]1CCc2sc3ncnc(O[C@H]4CC[C@H](N5CCOCC5)CC4)c3c21` has an inhibition of 24% (enzyme activity, inhibitor; 10 µM).
`COc1cc(-n2cc3cc(F)cc(C(N)=O)c3n2)cc(Cl)c1C1CC(O)(CCO)Cc2ccccc21` (stereo not shown) gave an inhibition of 0.39% (enzyme activity, inhibitor; 10 µM).
The inhibition of `Cc1nc2c(F)cc(-c3nc(Nc4ccc(CNC(=O)CCCCCCC(=O)NO)cc4)ncc3F)cc2n1C(C)C` is reported as 61% (enzyme activity, inhibitor; 1 µM).
`Cc1ccc(-c2c(/C=C(\C#N)C(=O)NC(C)C)n(CCCO)c3ncnc(N)c23)cc1` gave a remaining binding of 75% (cell-free assay, competition with immobilised ligand; 1 µM).
The remaining binding of `COc1c(Cl)cccc1Nc1c(-c2ccncc2C#C[C@@]2(C)CCCN2C(=O)/C=C/CN(C)C)[nH]c2c1C(=O)NCC2` is reported as 96% (cell-free assay, competition with immobilised ligand; 3 µM).
`C=CC(=O)Nc1cccc(-c2cnc3[nH]cc(C(=O)NC(C)(C)C)c3n2)c1` has an inhibition of 0% and -6% (kinase activity; 0.1 µM).

Repeated from above:
`CC(C)=CC1OC(C)(C)C2C=C3C(=O)C(Cl)=CC(O)C3C3C(O)C4OC4C(=O)C132` (stereo not shown) gave a remaining binding of 77% (cell-free assay, competition with immobilised ligand; 10 µM).
